{"data": "Measurements gathered from unrelated publications", "note": "Every numbered part comes from another study and shows a few of its results, in no order. Substitutions count along the parent as printed."}
{"data": "Set 1", "target": "Prothrombin, mature alpha-thrombin (F2, Homo sapiens, UniProt P00734)", "technique": "aptamer microarray, sandwich", "form": "DNA with 2'F-ANA", "sample": "in vitro", "tested at": "200 nM", "setting": "whole 15-mer aptamer, many near background", "added": "Cy3 exosite-II aptamer, 400 nM", "reading": "higher = stronger binding", "sequence": "GGTTGGTGTGGTTGG"}
{"Modification": "2'F-ANA at 1 2 3 4 7 8 11 14 15", "mean fluorescence intensity": "85.1 a.u."}
{"Modification": "2'F-ANA at 2 9 10 12 13 15", "mean fluorescence intensity": "155 a.u."}
{"Modification": "2'F-ANA at 1 2 3 5 8 9 12 15", "mean fluorescence intensity": "130 a.u."}
{"Modification": "2'F-ANA at 1 5 6 7 13 14", "mean fluorescence intensity": "47.1 a.u."}
{"Modification": "2'F-ANA at 2 4 9 10 11 13 15", "mean fluorescence intensity": "71.4 a.u."}
{"Modification": "2'F-ANA at 3 5 10 12 13", "mean fluorescence intensity": "86.4 a.u."}
{"Modification": "2'F-ANA at 2 5 8 9 12 13", "mean fluorescence intensity": "112 a.u."}
{"Modification": "2'F-ANA at 1 2 5 9 10 14 15", "mean fluorescence intensity": "49.4 a.u."}
{"Modification": "2'F-ANA at 2 5 7 8 9 10 11 12", "mean fluorescence intensity": "49 a.u."}
{"Modification": "2'F-ANA at 1 2 5 7 8 9 10 11 14", "mean fluorescence intensity": "56.2 a.u."}
{"Modification": "2'F-ANA at 1 2 3 4 6 7 8 9 12 13 15", "mean fluorescence intensity": "221 a.u."}
{"Modification": "2'F-ANA at 4 5 11 14", "mean fluorescence intensity": "42.1 a.u."}
{"Modification": "2'F-ANA at 1 2 6 7 8 10 14 15", "mean fluorescence intensity": "48.7 a.u."}
{"Modification": "2'F-ANA at 2 4 11 12 15", "mean fluorescence intensity": "448 a.u."}
{"Modification": "2'F-ANA at 2 5 8 11 12", "mean fluorescence intensity": "137 a.u."}
{"Modification": "2'F-ANA at 3 4 6 9 11 12 13 14", "mean fluorescence intensity": "246 a.u."}
{"Modification": "2'F-ANA at 3 4 5 6 9 10 11", "mean fluorescence intensity": "53.6 a.u."}
{"Modification": "2'F-ANA at 3 8 9 11 12 13 14 15", "mean fluorescence intensity": "608 a.u."}
{"Modification": "2'F-ANA at 3 5 6 7 9 10 13 14", "mean fluorescence intensity": "49.8 a.u."}
{"data": "Set 2", "target": "CCNB2, cyclin fold, Cln2 fusion (human)", "technique": "yeast growth competition, sequencing", "sample": "yeast", "setting": "weak parent motif", "baseline": "not given", "reading": "higher = stronger binding", "starting sequence": "MASTL docking peptide (human); PMIAKNLMCELDE; partner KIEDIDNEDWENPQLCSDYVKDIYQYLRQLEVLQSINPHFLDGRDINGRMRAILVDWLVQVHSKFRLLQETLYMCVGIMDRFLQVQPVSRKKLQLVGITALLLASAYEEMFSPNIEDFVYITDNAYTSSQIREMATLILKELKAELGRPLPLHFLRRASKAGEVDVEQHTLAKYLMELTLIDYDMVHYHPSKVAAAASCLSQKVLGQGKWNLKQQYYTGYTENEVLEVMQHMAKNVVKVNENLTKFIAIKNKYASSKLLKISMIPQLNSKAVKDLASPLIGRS"}
{"Substitution": "PMIAKNLMCEQDE [L11Q]", "normalised enrichment score": 0.00266}
{"Substitution": "PMIAKNLMCETDE [L11T]", "normalised enrichment score": -0.0268}
{"Substitution": "PMIAKNLMGELDE [C9G]", "normalised enrichment score": 0.124}
{"Substitution": "PMIMKNLMCELDE [A4M]", "normalised enrichment score": 0.207}
{"Substitution": "PMIAKNLMCCLDE [E10C]", "normalised enrichment score": 0.54}
{"Substitution": "PMIAKNGMCELDE [L7G]", "normalised enrichment score": -0.545}
{"Substitution": "PMIAKNLMCVLDE [E10V]", "normalised enrichment score": 0.768}
{"Substitution": "PMIAKCLMCELDE [N6C]", "normalised enrichment score": 0.201}
{"Substitution": "PMIAKNLMCEKDE [L11K]", "normalised enrichment score": 0.0665}
{"Substitution": "PMIAKPLMCELDE [N6P]", "normalised enrichment score": -0.318}
{"Substitution": "PMIAKNLMCEDDE [L11D]", "normalised enrichment score": -0.488}
{"Substitution": "PMIAYNLMCELDE [K5Y]", "normalised enrichment score": -0.0202}
{"Substitution": "PMIAINLMCELDE [K5I]", "normalised enrichment score": 0.0507}
{"Substitution": "PMTAKNLMCELDE [I3T]", "normalised enrichment score": 0.309}
{"data": "Set 3", "target": "RNA binding protein fox-1 homolog 2, RRM domain, GST-SBP tag (RBFOX2, Homo sapiens, UniProt O43251-10, residues 100-194)", "technique": "RNA Bind-n-Seq", "form": "RNA", "sample": "in vitro", "tested at": "365 nM", "setting": "natural RNA segment, single round, ends assumed", "baseline": "no-protein control", "reading": "higher = stronger binding", "Construct (chain)": "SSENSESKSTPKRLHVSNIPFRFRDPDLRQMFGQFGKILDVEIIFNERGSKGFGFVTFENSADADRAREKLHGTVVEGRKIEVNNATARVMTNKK"}
{"Sequence": "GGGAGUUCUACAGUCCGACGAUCGAUAAAACUGUGUAAACCACAUAAUUUUUGUACAUCCCAAAGGAUGAGAAUGUGACCUUUAAGAAAAAUGAAAACUUUUGUAAAUUAUUGAUGAUUUUGUAAUUCUUAUGUGGAAUUCUCGGGUGCCAA", "RBNS enrichment (R)": 0.601}
{"Sequence": "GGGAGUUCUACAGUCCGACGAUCGCAUGUAGUCACUUUAUAAGUCAUUGUAUGUUAUUAUAUUCCGUAGGUAGAUGUGUAACCUCUUCACCUUAUUCAUGGCUGAAGUCACCUCUUGGUUACAGUAGCGUAGCUGGAAUUCUCGGGUGCCAA", "RBNS enrichment (R)": 1.34}
{"Sequence": "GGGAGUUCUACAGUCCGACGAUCACGUAAACACUGGUGACAUAAACCAUUCAUUGCUACGUUGCUUAUUGUGUUUUUAUGCUGUUUUAUACUUUUUUAUGAGUUAUGAUAGCAGCAAUUAAGUUGUUUGUAUUUGGAAUUCUCGGGUGCCAA", "RBNS enrichment (R)": 0.263}
{"Sequence": "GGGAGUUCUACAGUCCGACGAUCGCAAUGAUCCAGUCUAAAGUAGAACCUCAAUUUAAAAGAUUGAGGUUCAGAGCAUCAACACUCCAUACACCUCCCCAAGUCAGCCAUAGACUGUUUUUUUUUUCAGAAGUUGGAAUUCUCGGGUGCCAA", "RBNS enrichment (R)": 0.416}
{"Sequence": "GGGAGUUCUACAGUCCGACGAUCUCAUCAGAGGCUGUUUUCCAUGAUCUGGUCCUUCCUCCAGAAAGAAGCAGGAGUUCUCAGAGGAACACGUCCUUCCAUCCAGGAGAAAGUGACUUUCUGUCUGCGGCUGCUGGAAUUCUCGGGUGCCAA", "RBNS enrichment (R)": 0.279}
{"Sequence": "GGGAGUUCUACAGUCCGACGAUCUGGCCAGGGGGUGUGAUAACAAAUUGUCCUCAAGUAUCCCAUGUAAUUUUUAUUUAAACCCUUGCACUUCUCAGUGCCUGGCAGCUGCAAGGGUCCCAGCUGCCCCGAGGUGGAAUUCUCGGGUGCCAA", "RBNS enrichment (R)": 0.924}
{"Sequence": "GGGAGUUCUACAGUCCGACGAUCUUAAUGGAGUCUUGGACCCUUUCUUUCUCUGGGAUCCCUGCCCAGCACCUUCCUAUAGAGAUGACUUUAAAAGGAAAAAAAAAAAAAAAAAAACCCACAUGAUUUCAAGGUGGAAUUCUCGGGUGCCAA", "RBNS enrichment (R)": 0.642}
{"Sequence": "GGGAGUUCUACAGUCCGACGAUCUCUUCAAUAAAGAGAUUUAAUAGCCAUUUCAAGAAAUCCCAUAAAGAACCUCUCUAUGUCCCUUUUUUUAAUUUAAAAAAAAUGACUCUUGUCUAAUAUUCGUCUAUAAGUGGAAUUCUCGGGUGCCAA", "RBNS enrichment (R)": 1.05}
{"data": "Mixed results"}
{"Substance": "PhoQ, residues 284 288 289 292 302 303 SCCLKL", "target": "PhoP, residues 12 14 15 18 19 SYFRT (Escherichia coli, UniProt P23836)", "test": "Sort-seq, measured: YFP reporter", "test system": "E. coli", "setting": "PhoQ-PhoP variant library, added: 10 µM Mg2+", "how to read": "baseline: high Mg2+ state, higher = stronger signaling", "quantity": "fold induction", "value": 10}
{"note": "Some of these lines once more (set 2):"}
{"Substitution": "PMIAKNLMCEDDE [L11D]", "normalised enrichment score": -0.488}
{"Substitution": "PMIAKNLMCEKDE [L11K]", "normalised enrichment score": 0.0665}
{"Substitution": "PMIAYNLMCELDE [K5Y]", "normalised enrichment score": -0.0202}
{"Substitution": "PMIMKNLMCELDE [A4M]", "normalised enrichment score": 0.207}
{"Substitution": "PMIAKPLMCELDE [N6P]", "normalised enrichment score": -0.318}
{"Substitution": "PMIAKNGMCELDE [L7G]", "normalised enrichment score": -0.545}
